Experimental data of several laboratories.
Compare with care: the assays were run in different laboratories. ± marks the error that the study gave.

Sequences of proteins named here, by UniProt entry; tags and fusion partners are left off. Residues count along the entry.
UniProt O43175, whole entry: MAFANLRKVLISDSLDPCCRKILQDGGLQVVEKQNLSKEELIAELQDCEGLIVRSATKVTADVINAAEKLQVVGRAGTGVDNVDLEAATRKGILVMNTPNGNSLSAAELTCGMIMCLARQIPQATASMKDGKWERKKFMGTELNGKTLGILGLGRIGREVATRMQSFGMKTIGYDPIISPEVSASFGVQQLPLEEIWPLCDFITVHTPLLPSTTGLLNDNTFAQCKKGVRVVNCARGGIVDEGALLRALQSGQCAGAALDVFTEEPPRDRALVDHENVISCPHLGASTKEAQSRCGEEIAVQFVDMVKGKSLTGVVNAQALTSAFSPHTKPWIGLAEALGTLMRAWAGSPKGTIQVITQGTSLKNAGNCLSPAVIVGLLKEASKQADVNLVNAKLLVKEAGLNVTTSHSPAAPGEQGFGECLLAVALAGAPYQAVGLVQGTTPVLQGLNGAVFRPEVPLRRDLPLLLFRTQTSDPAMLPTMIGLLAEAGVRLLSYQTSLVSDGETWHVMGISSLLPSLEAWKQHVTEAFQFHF
UniProt P0ADG7, whole entry S250A/L444Y: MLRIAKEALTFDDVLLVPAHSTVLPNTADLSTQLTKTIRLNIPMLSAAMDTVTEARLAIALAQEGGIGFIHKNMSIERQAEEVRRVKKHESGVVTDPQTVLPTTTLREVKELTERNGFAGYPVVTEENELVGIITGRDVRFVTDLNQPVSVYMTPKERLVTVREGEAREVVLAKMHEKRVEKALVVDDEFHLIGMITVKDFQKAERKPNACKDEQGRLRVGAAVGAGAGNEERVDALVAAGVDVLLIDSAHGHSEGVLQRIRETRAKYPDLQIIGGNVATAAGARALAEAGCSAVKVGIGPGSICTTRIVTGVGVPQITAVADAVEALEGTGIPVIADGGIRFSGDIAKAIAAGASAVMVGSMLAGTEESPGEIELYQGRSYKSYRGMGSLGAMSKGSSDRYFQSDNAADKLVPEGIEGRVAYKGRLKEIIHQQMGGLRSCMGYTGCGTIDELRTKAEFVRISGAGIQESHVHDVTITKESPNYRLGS
UniProt P00747, 581-810 limits assumed: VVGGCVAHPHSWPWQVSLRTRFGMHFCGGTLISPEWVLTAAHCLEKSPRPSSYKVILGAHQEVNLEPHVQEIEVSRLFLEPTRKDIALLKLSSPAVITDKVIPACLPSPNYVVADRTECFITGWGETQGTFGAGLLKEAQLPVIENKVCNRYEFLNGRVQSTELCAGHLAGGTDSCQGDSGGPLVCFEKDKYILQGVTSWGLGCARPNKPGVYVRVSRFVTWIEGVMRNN
UniProt P00747, 98-580 partner limits assumed: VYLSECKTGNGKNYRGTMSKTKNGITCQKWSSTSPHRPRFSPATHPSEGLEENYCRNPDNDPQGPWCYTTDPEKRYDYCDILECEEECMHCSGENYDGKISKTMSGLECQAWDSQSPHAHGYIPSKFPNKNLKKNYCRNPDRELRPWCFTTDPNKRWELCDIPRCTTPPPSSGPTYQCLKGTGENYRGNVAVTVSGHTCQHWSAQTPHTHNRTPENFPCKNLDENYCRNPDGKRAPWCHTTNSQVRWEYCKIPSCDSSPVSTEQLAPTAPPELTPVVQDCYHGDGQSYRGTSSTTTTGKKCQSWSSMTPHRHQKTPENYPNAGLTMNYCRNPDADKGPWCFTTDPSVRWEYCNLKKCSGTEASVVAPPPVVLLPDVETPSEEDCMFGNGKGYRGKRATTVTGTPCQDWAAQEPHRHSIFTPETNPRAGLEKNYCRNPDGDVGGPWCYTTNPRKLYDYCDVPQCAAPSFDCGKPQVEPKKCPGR
UniProt P11802, whole entry: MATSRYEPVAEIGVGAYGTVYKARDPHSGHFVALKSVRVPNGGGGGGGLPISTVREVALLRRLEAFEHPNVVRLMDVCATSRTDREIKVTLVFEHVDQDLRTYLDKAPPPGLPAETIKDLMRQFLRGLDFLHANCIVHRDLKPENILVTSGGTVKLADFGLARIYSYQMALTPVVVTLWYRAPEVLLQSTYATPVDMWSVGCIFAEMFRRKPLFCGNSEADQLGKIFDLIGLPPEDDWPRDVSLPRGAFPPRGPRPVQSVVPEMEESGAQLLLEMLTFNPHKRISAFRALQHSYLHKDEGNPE
UniProt P08631, whole entry: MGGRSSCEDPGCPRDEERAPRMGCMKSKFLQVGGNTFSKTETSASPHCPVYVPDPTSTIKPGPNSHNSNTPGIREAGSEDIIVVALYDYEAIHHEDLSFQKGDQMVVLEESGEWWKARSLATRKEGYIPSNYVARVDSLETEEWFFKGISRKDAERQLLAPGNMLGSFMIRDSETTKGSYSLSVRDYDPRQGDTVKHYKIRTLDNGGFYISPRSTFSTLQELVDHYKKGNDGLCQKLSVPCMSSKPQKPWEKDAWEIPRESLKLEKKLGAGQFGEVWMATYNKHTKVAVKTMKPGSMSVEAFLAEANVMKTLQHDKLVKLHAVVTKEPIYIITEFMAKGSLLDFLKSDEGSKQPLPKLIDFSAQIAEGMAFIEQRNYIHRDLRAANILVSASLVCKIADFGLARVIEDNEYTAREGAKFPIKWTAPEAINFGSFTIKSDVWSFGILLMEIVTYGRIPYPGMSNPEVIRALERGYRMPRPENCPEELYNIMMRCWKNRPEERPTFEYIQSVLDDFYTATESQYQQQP
UniProt P54753, whole entry, looked up: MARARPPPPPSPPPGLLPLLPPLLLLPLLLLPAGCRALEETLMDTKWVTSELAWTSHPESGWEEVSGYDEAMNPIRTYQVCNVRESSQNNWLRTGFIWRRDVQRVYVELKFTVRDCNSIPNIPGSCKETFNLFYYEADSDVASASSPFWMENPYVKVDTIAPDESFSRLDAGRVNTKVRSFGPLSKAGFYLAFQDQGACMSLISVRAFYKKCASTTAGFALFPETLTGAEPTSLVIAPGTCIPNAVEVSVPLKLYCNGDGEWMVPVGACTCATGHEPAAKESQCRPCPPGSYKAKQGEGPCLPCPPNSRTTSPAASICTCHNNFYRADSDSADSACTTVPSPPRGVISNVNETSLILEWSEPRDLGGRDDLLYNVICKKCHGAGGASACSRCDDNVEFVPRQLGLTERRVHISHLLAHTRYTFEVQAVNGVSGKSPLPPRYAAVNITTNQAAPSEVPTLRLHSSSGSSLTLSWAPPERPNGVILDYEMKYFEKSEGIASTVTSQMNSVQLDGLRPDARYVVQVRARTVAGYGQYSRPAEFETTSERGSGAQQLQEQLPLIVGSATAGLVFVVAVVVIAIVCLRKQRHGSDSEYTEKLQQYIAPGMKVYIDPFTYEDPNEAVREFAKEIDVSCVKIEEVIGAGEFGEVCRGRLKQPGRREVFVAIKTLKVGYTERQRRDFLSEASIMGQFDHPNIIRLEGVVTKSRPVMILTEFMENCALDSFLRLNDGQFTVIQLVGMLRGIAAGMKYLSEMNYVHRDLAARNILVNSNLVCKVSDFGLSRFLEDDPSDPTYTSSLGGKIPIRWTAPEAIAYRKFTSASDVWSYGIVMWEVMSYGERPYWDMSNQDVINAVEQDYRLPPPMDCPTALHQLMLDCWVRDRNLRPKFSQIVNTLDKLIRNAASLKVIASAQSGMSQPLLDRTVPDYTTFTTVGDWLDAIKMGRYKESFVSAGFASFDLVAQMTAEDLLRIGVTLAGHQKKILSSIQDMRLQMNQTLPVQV
UniProt P06276, 29-602 limits assumed: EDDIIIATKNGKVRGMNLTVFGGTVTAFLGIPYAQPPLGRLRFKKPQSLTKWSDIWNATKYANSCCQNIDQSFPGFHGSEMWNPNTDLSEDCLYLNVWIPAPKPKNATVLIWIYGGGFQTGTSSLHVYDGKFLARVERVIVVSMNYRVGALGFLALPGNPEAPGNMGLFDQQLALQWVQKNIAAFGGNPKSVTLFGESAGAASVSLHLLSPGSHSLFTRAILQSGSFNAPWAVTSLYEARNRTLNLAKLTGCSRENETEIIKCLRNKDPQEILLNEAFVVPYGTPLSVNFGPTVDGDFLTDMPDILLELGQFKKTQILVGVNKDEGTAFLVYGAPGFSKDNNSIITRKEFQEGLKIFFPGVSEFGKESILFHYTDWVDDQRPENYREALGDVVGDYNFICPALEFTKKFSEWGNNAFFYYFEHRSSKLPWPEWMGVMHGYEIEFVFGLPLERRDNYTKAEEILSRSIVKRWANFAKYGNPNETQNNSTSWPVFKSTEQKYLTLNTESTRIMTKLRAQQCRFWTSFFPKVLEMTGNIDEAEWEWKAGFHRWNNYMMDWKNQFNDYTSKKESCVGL
UniProt P28335, 33-458 limits assumed: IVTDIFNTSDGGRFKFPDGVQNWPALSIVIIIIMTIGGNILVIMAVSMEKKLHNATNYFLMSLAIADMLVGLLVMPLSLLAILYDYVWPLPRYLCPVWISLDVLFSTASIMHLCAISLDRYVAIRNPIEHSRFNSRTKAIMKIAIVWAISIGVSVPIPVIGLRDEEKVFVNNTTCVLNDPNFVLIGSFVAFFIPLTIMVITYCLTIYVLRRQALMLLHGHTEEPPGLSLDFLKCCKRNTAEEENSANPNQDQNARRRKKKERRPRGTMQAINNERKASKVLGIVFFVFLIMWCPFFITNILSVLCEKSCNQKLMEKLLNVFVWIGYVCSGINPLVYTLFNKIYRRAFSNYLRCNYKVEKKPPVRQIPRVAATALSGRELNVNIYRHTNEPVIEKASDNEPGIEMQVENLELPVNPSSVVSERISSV
UniProt P30281, whole entry partner: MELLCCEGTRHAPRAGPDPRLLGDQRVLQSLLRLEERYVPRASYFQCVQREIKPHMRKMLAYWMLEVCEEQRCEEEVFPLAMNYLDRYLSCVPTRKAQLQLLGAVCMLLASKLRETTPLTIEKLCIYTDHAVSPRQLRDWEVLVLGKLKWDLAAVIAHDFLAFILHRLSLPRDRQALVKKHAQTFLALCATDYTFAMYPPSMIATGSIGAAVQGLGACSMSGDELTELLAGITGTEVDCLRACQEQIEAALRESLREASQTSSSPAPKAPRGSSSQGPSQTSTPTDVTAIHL

| SMILES | target | test | system | setting | quantity | result |
| --- | --- | --- | --- | --- | --- | --- |
| O=C(N/N=C/c1cc([N+](=O)[O-])ccc1O)c1ccc(O)cc1O | PHGDH (Homo sapiens, UniProt O43175) | surface plasmon resonance | – | 25 °C | Kd | 560 ± 100 nM |
| CC1(C)S[C@@H]2CS[C@@H](CS)N2[C@H]1C(=O)O | VIM-2 (Escherichia coli, UniProt Q5U7L7, R205L) | nitrocefin hydrolysis, slow-binding inhibitor | Klebsiella pneumoniae | together with: nitrocefin | Ki | 80 ± 10 nM |
| O=C(Cn1c(-c2ccccn2)nc2ccccc21)Nc1ccc2ccccc2c1 | guaB (Escherichia coli K-12, UniProt P0ADG7, L444Y/S250A) | enzyme activity, inhibitor | – | corrected for open conformation | IC50 | 0.6 nM |
| CC[C@@H](C)[C@@H](NC(=O)C(O)Cc1ccc(O)c(Cl)c1)C(=O)N1C(C(=O)NCCCCN=C(N)N)CC2CCC(OS(=O)(=O)O)CC21 (stereo partly drawn) | Plasminogen (PLG, Homo sapiens, UniProt P00747) | enzyme activity, inhibitor | – | – | IC50 | 2.7 µg/mL |
| Fc1cccc(-n2cnc3c(NCc4nc5cc(Cl)ccc5[nH]4)nc(N4CCNCC4)nc32)c1 | Cyclin-dependent kinase 4, with cyclin D3 (CDK4, Homo sapiens, UniProt P11802) | enzyme activity, inhibitor | – | – | IC50 | 391 nM |
| CCN1CCN(Cc2ccc(NC(=O)c3ccc(C)c(/C=C/c4cnc5[nH]ccc5c4OC)c3)cc2C(F)(F)F)CC1 | HCK (Homo sapiens, UniProt P08631) | – | human cells | – | EC50 | 402 nM |
| CC#C/C(=N\OC[C@H]1COCCN1)c1ccc2ncnc(Nc3ccc(OCc4cccc(F)c4)c(Cl)c3)c2c1 | EPHB3 (Homo sapiens, UniProt P54753) | kinase activity | – | 10 µM | inhibition | -11.7% |
| CCN(CC)c1ccc2c(O)c(C=Nc3ccc(CC(=O)NNc4c5c(nc6ccccc46)CCCC5)cc3)c(=O)oc2c1 | Cholinesterase (BCHE, Homo sapiens, UniProt P06276) | enzyme activity, inhibitor | – | – | IC50 | 390 ± 40 nM |
| CCCN1CCN(c2ccc3c(c2)C2CC3CCN2C(=O)OCc2ccccc2)CC1 (stereo not drawn) | HTR2C (Homo sapiens, UniProt P28335) | binding, radioligand binding | – | – | Ki | 2140 nM |

Some of these lines once more:
| SMILES | target | test | system | setting | quantity | result |
| --- | --- | --- | --- | --- | --- | --- |
| O=C(N/N=C/c1cc([N+](=O)[O-])ccc1O)c1ccc(O)cc1O | PHGDH (Homo sapiens, UniProt O43175) | surface plasmon resonance | – | 25 °C | Kd | 560 ± 100 nM |
